Measurements gathered from unrelated publications.
Each line is one published result; not all experiments were run side by side.

Structure (SMILES) = CC(=O)N[C@H](C(=O)N1C[C@H](O)C[C@H]1C(=O)NCc1ccc(-c2scnc2C)cc1)C(C)(C)C; tested on = SNU-C4 HiBiT-PXR knock-in; test = CellTiter-Glo; setting = 72 h, 10% FBS; quantity = CC50; value = > 30 µM
Structure (SMILES) = COc1cccc(Nc2nc(NCC3CCCO3)c3ccccc3n2)c1 (centres unmarked); tested on = human cells; quantity = CC50; value = 16.3 µM
Structure (SMILES) = COC(=O)C1CCN(C(=O)c2ccc(N(C)Cc3cnc4nc(N)nc(N)c4n3)cc2)CC1; tested on = THP-1-derived macrophages; test = MTT; quantity = CC50; value = > 100 µM
Structure (SMILES) = CC(C)C[C@H](NC(=O)OCc1ccccc1)C(=O)N[C@@H](CC(C)C)C(=O)N[C@@H](CC1CCNC1=O)C(=O)C(=O)NC1CC1 (some centres unmarked); tested on = HCT-8; setting = 5 (unit not given); quantity = CC50; value = > 250 µM
Structure (SMILES) = COc1cc2c(Oc3ccc4[nH]c(C)cc4c3F)ccnc2cc1OCC1(N)CC1; test system = paediatric refractory sarcoma patients; setting = 8 mg; quantity = Fever incidence; value = 0%
Structure (SMILES) = S=C(NCc1ccc2c(c1)OCO2)N1CCN(c2ncnc3c2oc2ccccc23)CC1; tested on = human cells; quantity = CC50; value = 7.2 µM
Structure (SMILES) = COc1cc(-n2sc3ccccc3c2=O)ccc1F; tested on = TZM-bl; test = viability; quantity = CC50; value = > 100 µM
Structure (SMILES) = CC(=O)O[C@H]1C[C@H](O[C@H]2[C@@H](O)C[C@H](O[C@H]3[C@@H](O)C[C@H](O[C@H]4CC[C@@]5(C)[C@H](CC[C@@H]6[C@@H]5C[C@@H](O)[C@]5(C)[C@@H](C7=CC(=O)OC7)CC[C@]65O)C4)O[C@@H]3C)O[C@@H]2C)O[C@H](C)[C@H]1O[C@@H]1O[C@H](CO)[C@@H](O)[C@H](O)[C@H]1O; tested on = primary human fibroblasts uninfected; test = live/dead staining; setting = 48 h, capped at 10.00 µM; quantity = CC50; value = > 10 µM
Structure (SMILES) = CN(C)CCCSc1ccccc1NC(=O)/C=C/c1ccccc1; tested on = human cells; test = cytotoxicity; setting = 48 (unit not given); quantity = CC50; value = 67 µM
Structure (SMILES) = O=c1c2ccccc2sn1-c1ccc(F)c(F)c1; tested on = TZM-bl; test = viability; quantity = CC50; value = 33 µM
Structure (SMILES) = Nc1ccn(C[C@@H](CO)OCP(=O)(O)O)c(=O)n1; tested on = human cells; setting = 3 (unit not given); quantity = CC50; value = > 317 µM
Structure (SMILES) = O=C(Cc1c(F)cccc1Cl)Nc1nc(-c2ccncc2)cs1; tested on = human cells; quantity = CC50; value = > 20 µM
Structure (SMILES) = O=c1c2ccccc2[se]n1-c1ccccc1; tested on = human cells; test = cytotoxicity; setting = 48 (unit not given); quantity = CC50; value = 25 µM
Structure (SMILES) = CC(C)(C)c1cnc(CSc2cnc(NC(=O)C3CCN(CC(=O)NCCOCCOCCOCCNc4cccc5c4C(=O)N(C4CCC(=O)NC4=O)C5=O)CC3)s2)o1 (centres unmarked); tested on = human cells; quantity = CC50; value = > 20 µM
Structure (SMILES) = C[S+](C)[O-]; tested on = Vero-B4; test = MTS; setting = 4 days; quantity = CC50; value = 2.4%
Structure (SMILES) = COC(=O)C1CCN(C(=O)c2ccc(NCc3cnc4nc(N)nc(N)c4n3)cc2)CC1; tested on = THP-1-derived macrophages; test = MTT; quantity = CC50; value = > 100 µM
Structure (SMILES) = CC(=O)NC(c1ccc(C(C)C)cc1)c1ccc2cccnc2c1O (centres unmarked); tested on = human cells; quantity = CC50; value = > 20 µM

For quick reference, copied from above:
Structure (SMILES) = CC(C)(C)c1cnc(CSc2cnc(NC(=O)C3CCN(CC(=O)NCCOCCOCCOCCNc4cccc5c4C(=O)N(C4CCC(=O)NC4=O)C5=O)CC3)s2)o1 (centres unmarked); tested on = human cells; quantity = CC50; value = > 20 µM
Structure (SMILES) = C[S+](C)[O-]; tested on = Vero-B4; test = MTS; setting = 4 days; quantity = CC50; value = 2.4%
